Values quoted from earlier work, collected from citations in different studies.
Lines come from different studies, so protocols differ. ± marks the error that the study gave.
Organism: Plasmodium falciparum

Cc1ccc2[nH]c3ccccc3c(=O)c2c1 — IC50 (whole cell extended time; 3D7; 72 h): 860 nM
Cc1[nH]c2ccccc2c1CCNCc1ccc(/C=C/C(=O)NO)cc1 — IC50 (parasite growth; Dd2 (chloroquine-resistant)): 30 ± 40 nM
Cc1ccc(Oc2ccc(NC(=O)CNc3ccccc3N3CCCC3=O)cc2)cc1 — EC50 (parasite growth; 3D7 population E L562R): 6050 nM
N/C(CC(O)c1cc2c(F)cc(F)cc2c2cc(C(F)(F)F)ccc12)=N\c1ccc(F)cc1 (stereo not shown) — IC50 (parasite growth; K1): 3 nM
N#Cc1cc(NC(=O)[C@H]2c3ccccc3C(=O)N(CC(F)(F)F)[C@@H]2c2cccnc2)ccc1F — time to maximal kill (clonal dilution; exposure above EC99): 96 h
Cc1[nH]c(C)c(-c2ccc(CCc3ccc(N)cc3)cc2)c(=O)c1Cl — IC50 (whole cell extended time; 3D7; 72 h): 100 nM
CCN(CC)CCCC(C)Nc1ccnc2cc(Cl)ccc12 (stereo not shown) — AUC at ED90 (3D7 0087/N9, NSG mouse; dose not given): 3.1 µM·h
COCC(=O)N1CCC[C@H](C(=O)NCc2nc(-c3ccccc3)cs2)C1 — EC50 (parasite growth; 3D7; asexual blood stage): 89 nM
Cc1cc(Nc2ccc(S(F)(F)(F)(F)F)cc2)n2nc(C(C)(F)F)nc2n1 — lag phase (parasite reduction ratio; 3D7): 24 h
O=C(NC(=O)c1ccccc1O)c1ccccc1O — IC50 (whole cell extended time; 3D7; 72 h): 700 nM
O=C(/C=C/c1cccc(S(=O)(=O)Nc2ccccc2)c1)NO — IC50 (parasite growth; Dd2 (chloroquine-resistant)): 130 ± 10 nM
Cc1[nH]c(C)c(-c2ccc(-c3ccccc3C(F)(F)F)nc2)c(=O)c1Br — IC50 (whole cell extended time; 3D7; 72 h): 170 nM
CCc1nc(N)nc(N)c1-c1ccc(Cl)cc1 — AUC at ED90 (3D7 0087/N9, NSG mouse; dose not given): 5.2 µM·h
